Experimental data of several laboratories.
Every numbered part comes from another study and shows a few of its results, in no order. Substitutions count along the parent as printed.

Set 1
Molecule: PhoQ, residues 284 288 289 292 302 303 SNGLAW
Method: Sort-seq
Refers to: YFP reporter
Sample: E. coli
Setting: PhoQ-PhoP variant library
Added: 10 µM Mg2+
Baseline: high Mg2+ state
Direction: higher = stronger signaling
Endpoint: fold induction
PhoP, residues 12 14 15 18 19 TQCLL (Escherichia coli, UniProt P23836): 4.24
PhoP, residues 12 14 15 18 19 ICWRQ (Escherichia coli, UniProt P23836): 15.8
PhoP, residues 12 14 15 18 19 VHTVL (Escherichia coli, UniProt P23836): 5.1

Set 2
Target: CCNB3, cyclin fold, Cln2 fusion (human)
Method: yeast growth competition, sequencing
Sample: yeast
Setting: strong parent motif
Baseline: not given
Direction: higher = stronger binding
Endpoint: normalised enrichment score
Starting sequence: E2F1 docking peptide (human); PPVKRRLDFETDH
D8A: 1.69
E10N: 3.23
P2H: 2.53
R6P: -0.166
R5F: 0.233
L7I: 0.582
K4S: 1.35
K4C: 2.77
K4A: 2.08
T11Y: 2.26
K4Y: 0.216

Set 3
Target: Sal-like protein 4, full length isoform B (SALL4, Homo sapiens, UniProt Q9UJQ4-2, residues 1-616)
Method: universal PBM
Form: double-stranded DNA, one strand shown
Sample: in vitro
Tested at: not given
Setting: 8-mer, flanks averaged, mean of replicates
Direction: higher = stronger binding
Endpoint: E-score
Residues (chain): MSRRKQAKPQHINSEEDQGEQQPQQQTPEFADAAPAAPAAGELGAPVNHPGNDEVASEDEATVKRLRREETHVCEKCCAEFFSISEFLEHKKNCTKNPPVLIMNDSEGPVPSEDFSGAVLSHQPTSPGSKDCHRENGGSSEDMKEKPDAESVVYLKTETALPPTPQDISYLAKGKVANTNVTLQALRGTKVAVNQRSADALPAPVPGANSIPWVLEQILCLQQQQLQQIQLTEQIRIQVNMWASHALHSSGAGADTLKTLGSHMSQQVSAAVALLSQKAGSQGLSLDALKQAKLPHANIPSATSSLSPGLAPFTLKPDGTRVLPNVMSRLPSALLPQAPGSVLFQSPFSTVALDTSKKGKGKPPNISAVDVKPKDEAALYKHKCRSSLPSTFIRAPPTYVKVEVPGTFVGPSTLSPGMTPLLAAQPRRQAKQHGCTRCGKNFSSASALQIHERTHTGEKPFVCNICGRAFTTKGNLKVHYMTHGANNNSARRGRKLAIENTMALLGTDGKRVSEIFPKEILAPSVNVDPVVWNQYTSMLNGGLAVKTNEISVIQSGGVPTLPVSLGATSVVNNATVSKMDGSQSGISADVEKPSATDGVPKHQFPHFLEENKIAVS
GGCATCCA: -0.0971
TTCCGAAA: 0.168
CGTGCTGC: -0.274
ACAGGGGC: -0.257
CTTGACAC: -0.132
GCTTAAAC: 0.0527
CAGGGCCG: -0.252
CGTTAAAA: 0.153
AGGATCCA: -0.207
CTATCAAG: 0.0109
GCGTAGGA: -0.152
CTTCGCTA: 0.00769
ACGGACAT: -0.00485
ATTAAAGG: 0.291

Set 4
Target: ABI1, truncated, D143A, DHFR fusion (Arabidopsis thaliana)
Method: DHFR PCA, deep sequencing
Sample: yeast
Setting: methotrexate growth selection, single substitutions
Added: (+)-ABA 4.8 µM
Baseline: wild-type fitted maximum
Direction: higher = stronger binding
Endpoint: relative binding score
Starting sequence: PYL1, truncated, DHFR fusion (Arabidopsis thaliana); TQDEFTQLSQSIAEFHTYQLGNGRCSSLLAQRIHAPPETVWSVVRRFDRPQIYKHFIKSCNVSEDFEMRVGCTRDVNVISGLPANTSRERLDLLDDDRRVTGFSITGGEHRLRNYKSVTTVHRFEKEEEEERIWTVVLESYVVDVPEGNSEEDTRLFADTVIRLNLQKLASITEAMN
D159P: -5.13%
S171E: 93%
C25G: -0.54%
L156P: -1.06%
V136Y: 46.4%
V40A: -4.19%
S59T: 72.9%

Excerpt of the above (set 3):
TTCCGAAA: 0.168
CTTGACAC: -0.132
CGTTAAAA: 0.153
CTATCAAG: 0.0109
